# Measured values from different studies.
SMILES,test,system,conditions,endpoint,value
CN1CC[C@@H](c2c(O)cc(O)c3c(=O)cc(-c4ccc(C(F)(F)F)cc4Cl)oc23)[C@@H]1CO,item: Hypoalbuminemia,relapsed B-cell malignancies,"oral, 150 mg, grade 3-4, intermittent dosing",patients with adverse event,0%
O[C@H]1CCCN[C@@H]1CCCn1cnc2c(Cl)c(Cl)ccc21,,"healthy humans, plasma","oral, 150 mg, with: nintedanib 150 mg",terminal half-life,4.17 h
c1ccc(-c2nnn[nH]2)cc1,,,pH 7.4,logD (chromatographic),0.06
COc1ncccc1-c1cnn2ccc(N3CCN(C(=O)OC(C)C)CC3)nc12,,"rat rotarod, plasma","10 mg/kg, 180 min",free concentration,22 nM
C[C@]1(CO)Cc2ncn(-c3ccc(C#N)c(Cl)c3)c2C(=O)O1,,human,"10 mg, European food-effect part, fed",any TEAE,8.3%
CCc1ccc(CC/C=C/c2ccc3c(c2)C(=O)CC3)cc1,,"Sprague-Dawley rat, male","oral, 30 mg/kg/day, 14 days",Lymphocyte percentage,85.1%
C[C@@H](NC(=O)N1C(=O)[C@H](Cc2ccnc(N)c2)[C@H]1C(=O)O)C1CCCCC1,,healthy adult Chinese volunteers,"continuous intravenous infusion, 0.3 mg/kg/h, 5-day infusion, CTCAE 5.0 grading",incidence of urine erythrocyte positive,0%
COc1cc2c(Oc3ccc4[nH]c(C)cc4c3F)ccnc2cc1OCC1(N)CC1,item: grade 1 or 2 weight loss,paediatric high-risk refractory sarcoma,8 mg,incidence of adverse event,0%
NC(=O)[C@H]1CCN(c2ncnc(N)c2F)C[C@@H]1N1CCC[C@@H](Nc2cc(Cl)cc(C(F)(F)F)c2)C1=O,,B-cell malignancy patients,"oral, 410 mg twice daily, dose",grade ≥3 lymphopenia,0%
COc1ncnn2ccc(-c3cnc4nc(C)n(Cc5nnc([C@@H](C)F)o5)c4c3)c12,,human,"oral, dose not given, grade 2",patients with taste disorder,7.1%
CC(=O)c1c(C)c2cnc(Nc3ccc(C4CCN(CCS(C)(=O)=O)CC4)cn3)nc2n(C2CCCC2)c1=O,,"human, plasma","oral, 50 mg twice daily, day 1, single dose, with: letrozole",AUC(0-t),411 ng·h/mL
O=C(c1ccc(F)c(F)c1Nc1ccc(I)cc1F)N1CC(O)([C@@H]2CCCCN2)C1,,human patients,"oral, 1 mg/kg, age ≥18 years",treatment-related adverse events,100%
O=c1ccc2cc3ccoc3cc2o1,post-procedure stability,rat plasma,"200 ng/mL, 1 h, room temperature",accuracy,82%
CC[C@H](C)CCCCC(=O)N[C@@H](CCN)C(=O)N[C@H](C(=O)N[C@@H](CCN)C(=O)N[C@H]1CCNC(=O)[C@H]([C@@H](C)O)NC(=O)[C@H](CCN)NC(=O)[C@H](CCN)NC(=O)[C@H](CC(C)C)NC(=O)[C@@H](Cc2ccccc2)NC(=O)[C@H](CCN)NC1=O)[C@@H](C)O,,"human, critically ill, AKI, plasma","dose not given, mean",fAUC(0-24) steady state,65300 ng·h/mL
CO[C@H]1C[C@@H]2CC[C@@H](C)[C@@](O)(O2)C(=O)C(=O)N2CCCC[C@H]2C(=O)O[C@H]([C@H](C)C[C@@H]2CC[C@@H](OC(=O)NCCOCCOCCOCCOCCOCCOCCOCCOCCC(=O)N3CCc4cc(Cn5nc(-c6ccc7oc(N)nc7c6)c6c(N)ncnc65)ccc4C3)[C@H](OC)C2)C[C@@H](O)[C@H](C)/C=C(\C)[C@@H](O)[C@@H](OC)C(=O)[C@H](C)C[C@H](C)/C=C/C=C/C=C/1C,,patients with advanced solid tumours,"intravenous, 8 mg weekly, any grade",pneumonia AE leading to dose reduction,0%
Cc1cc(C)c(CNC(=O)c2cc(Cl)c3c(c2C)O[C@@](C)([C@H]2CC[C@H](N(C)C)CC2)O3)c(=O)[nH]1,,"human, relapsed/refractory NHL","concentration not given, all TEAEs, grade 5",Hyponatraemia incidence,0%

# Repeated from above:
SMILES,test,system,conditions,endpoint,value
COc1ncnn2ccc(-c3cnc4nc(C)n(Cc5nnc([C@@H](C)F)o5)c4c3)c12,,human,"oral, dose not given, grade 2",patients with taste disorder,7.1%
